# Published values of several laboratories.
# Parts stem from different laboratories: compare values within a part only.
# UniProt Q92985, sequence (whole entry, unmodified, looked up): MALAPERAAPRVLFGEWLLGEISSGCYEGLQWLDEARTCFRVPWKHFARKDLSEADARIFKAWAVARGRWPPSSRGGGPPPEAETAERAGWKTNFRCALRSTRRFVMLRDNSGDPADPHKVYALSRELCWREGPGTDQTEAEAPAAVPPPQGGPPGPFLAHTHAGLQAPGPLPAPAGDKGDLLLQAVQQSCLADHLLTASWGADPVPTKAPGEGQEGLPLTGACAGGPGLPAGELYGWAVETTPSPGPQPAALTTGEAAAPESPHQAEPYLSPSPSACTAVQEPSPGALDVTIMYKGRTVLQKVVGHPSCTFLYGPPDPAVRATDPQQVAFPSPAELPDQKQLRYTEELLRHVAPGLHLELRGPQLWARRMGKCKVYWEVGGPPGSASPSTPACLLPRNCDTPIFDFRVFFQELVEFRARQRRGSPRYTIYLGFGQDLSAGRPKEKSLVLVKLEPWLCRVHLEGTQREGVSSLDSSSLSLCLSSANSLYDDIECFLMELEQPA

# Sample 1
# Target: Phosphate system positive regulatory protein PHO4, full length, GST-tagged (PHO4, Saccharomyces cerevisiae, UniProt P07270, residues 1-312)
# Technique: competition protein-binding microarray
# Molecule type: double-stranded DNA, one strand shown
# Medium: in vitro
# Concentration: 2 µM
# Notes: whole 60-bp probe, lowest competitor level
# Added: Cbf1 competitor, 0.05 µM
# Direction: higher = stronger binding
# Residues (chain): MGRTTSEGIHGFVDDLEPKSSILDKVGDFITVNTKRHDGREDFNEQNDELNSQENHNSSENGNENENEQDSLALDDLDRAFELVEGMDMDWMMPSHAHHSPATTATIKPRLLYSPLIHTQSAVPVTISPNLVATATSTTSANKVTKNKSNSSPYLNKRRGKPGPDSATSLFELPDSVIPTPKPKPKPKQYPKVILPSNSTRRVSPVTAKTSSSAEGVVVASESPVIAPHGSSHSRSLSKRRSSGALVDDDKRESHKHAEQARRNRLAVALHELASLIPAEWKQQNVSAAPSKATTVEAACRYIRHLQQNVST
Oligonucleotide,fluorescence intensity
TGTGTCCGGAGAAACCTCGTGCGGAAAACAGCGCAAGTCTTGATTCGCTTGACGCTGCTG,11900 a.u.
AAAGCGGTAATTTGGGCCGTGGGTGCAGATATCTATGTCTTGATTCGCTTGACGCTGCTG,6150 a.u.
CATACCCAACCTTGAAGTGTGGGTGAAGATATTTGTGTCTTGATTCGCTTGACGCTGCTG,5220 a.u.

# Sample 2
# Target: Sal-like protein 4, full length isoform A (SALL4, Homo sapiens, UniProt Q9UJQ4, residues 1-1053)
# UniProt Q9UJQ4, sequence (whole entry, looked up): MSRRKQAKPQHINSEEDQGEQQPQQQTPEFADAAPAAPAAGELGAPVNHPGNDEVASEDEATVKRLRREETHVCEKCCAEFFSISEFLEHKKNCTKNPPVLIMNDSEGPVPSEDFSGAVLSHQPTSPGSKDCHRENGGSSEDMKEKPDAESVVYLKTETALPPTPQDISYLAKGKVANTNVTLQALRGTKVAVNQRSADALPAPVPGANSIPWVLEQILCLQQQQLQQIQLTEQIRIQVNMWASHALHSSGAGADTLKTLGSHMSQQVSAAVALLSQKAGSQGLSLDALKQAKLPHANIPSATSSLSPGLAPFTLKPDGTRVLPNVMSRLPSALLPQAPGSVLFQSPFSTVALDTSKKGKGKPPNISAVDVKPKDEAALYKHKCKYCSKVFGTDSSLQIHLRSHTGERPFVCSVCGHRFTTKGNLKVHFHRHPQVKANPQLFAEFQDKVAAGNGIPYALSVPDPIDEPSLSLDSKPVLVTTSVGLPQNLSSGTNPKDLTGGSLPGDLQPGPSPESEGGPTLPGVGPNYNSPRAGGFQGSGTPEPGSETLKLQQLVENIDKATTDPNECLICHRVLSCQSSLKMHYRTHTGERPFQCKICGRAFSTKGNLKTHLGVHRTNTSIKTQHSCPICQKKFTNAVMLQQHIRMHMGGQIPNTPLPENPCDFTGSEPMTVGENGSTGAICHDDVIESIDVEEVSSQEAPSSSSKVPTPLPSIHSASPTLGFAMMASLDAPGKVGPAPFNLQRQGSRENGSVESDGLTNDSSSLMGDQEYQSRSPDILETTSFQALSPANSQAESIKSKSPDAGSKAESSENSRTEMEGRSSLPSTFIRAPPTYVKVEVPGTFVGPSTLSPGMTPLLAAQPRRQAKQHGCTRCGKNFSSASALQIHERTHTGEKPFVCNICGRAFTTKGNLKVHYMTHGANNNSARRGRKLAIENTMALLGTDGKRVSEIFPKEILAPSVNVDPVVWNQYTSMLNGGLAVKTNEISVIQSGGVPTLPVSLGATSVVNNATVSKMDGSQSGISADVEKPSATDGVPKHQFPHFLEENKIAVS
# Technique: universal PBM
# Molecule type: double-stranded DNA, one strand shown
# Medium: in vitro
# Concentration: 600 nM
# Notes: 8-mer, flanks averaged, mean of replicates
# Direction: higher = stronger binding
Oligonucleotide,E-score
AATTGACC,0.0503
CTATACTC,0.0635
TTAGGCAA,0.0344

# Single results of other studies
Molecule,target,test,test system,conditions,scale,endpoint,result
GCCTAGCACTCACCCTTGCTTTCCAAACTGTGCTAGGTCTTGATTCGCTTGACGCTGCTG,"Interferon regulatory factor 7, full length, phosphomimetic (IRF7, Homo sapiens, UniProt Q92985, residues 1-503, S471D/S472D/S475D/S476D/S477D/S483D/S484D/S487D)",protein-binding microarray,"double-stranded DNA, one strand shown, in vitro","2200 nM top, 60-bp whole probe, added: salmon DNA 0.4 mg/ml","relative to: random background probes, higher = stronger binding",fitted relative affinity,2.66 z-score
"PhoQ, residues 284 288 289 292 302 303 NSMLDC","PhoP, residues 12 14 15 18 19 GQAIL (Escherichia coli, UniProt P23836)","Sort-seq, item: YFP reporter",E. coli,"PhoQ-PhoP variant library, added: 10 µM Mg2+","relative to: high Mg2+ state, higher = stronger signaling",fold induction,13.2
GCCTAGCACTCTGATTTTGCTTTCATTTAGTGCTAGGTCTTGATTCGCTTGACGCTGCTG,"Interferon regulatory factor 7, full length, phosphomimetic (IRF7, Homo sapiens, UniProt Q92985, residues 1-503, S101K/S471D/S472D/S475D/S476D/S477D/S483D/S484D/S487D)",protein-binding microarray,"double-stranded DNA, one strand shown, in vitro","250 nM, 60-bp whole probe, added: salmon DNA 0.4 mg/ml","relative to: random background probes, higher = stronger binding",log fluorescence,0.84 z-score
TTCTCAAA,"Histone acetyltransferase KAT6A, winged helix 1, GST fusion (KAT6A, Homo sapiens, UniProt Q92794, residues 1-85)",protein binding microarray,"double-stranded DNA, one strand shown, in vitro","not given, 8-mer, flanks averaged, mean of 2 arrays, mostly near background","relative to: not given, higher = stronger binding",E-score,-0.238

# Some of these lines once more (single results of other studies):
Molecule,target,test,test system,conditions,scale,endpoint,result
GCCTAGCACTCTGATTTTGCTTTCATTTAGTGCTAGGTCTTGATTCGCTTGACGCTGCTG,"Interferon regulatory factor 7, full length, phosphomimetic (IRF7, Homo sapiens, UniProt Q92985, residues 1-503, S101K/S471D/S472D/S475D/S476D/S477D/S483D/S484D/S487D)",protein-binding microarray,"double-stranded DNA, one strand shown, in vitro","250 nM, 60-bp whole probe, added: salmon DNA 0.4 mg/ml","relative to: random background probes, higher = stronger binding",log fluorescence,0.84 z-score
